Published values collected from several papers.
Protocols differ between the studies behind these lines. Numbers after ± are the reported error.

Cn1cncc1[C@@](N)(c1ccc(Cl)cc1)c1ccc2c(c1)c(-c1cccc(Cl)c1)cc(=O)n2C
steady-state plasma concentration (human, plasma; 300 mg/m^2/dose, second cohort, median): 570 ng/mL

COc1cc2c(Nc3ccc(Br)cc3F)ncnc2cc1OCC1CCN(C)CC1
steady-state trough concentration (human patients, plasma; oral, 85 mg/m^2, day 42): 558 ± 175 ng/mL

N#Cc1ccc(C(c2ccc(C#N)cc2)n2cncn2)cc1
steady-state concentration (human patients, tumour extracellular fluid; 5 mg daily): 0.27 ± 0.03 µmol/L

CC(C)(C)OC[C@@H]1C(=O)NCCN1C(=O)C[C@H](N)Cc1cc(F)c(F)cc1F
steady-state Cmax (human, plasma; oral, dose not given, multiple doses, with: empagliflozin): 6.09 ± 1.65 ng/mL

CN(C)C(=O)c1cc2cnc(Nc3ccc(N4CCNCC4)cn3)nc2n1C1CCCC1
steady-state clearance (human, advanced solid tumours, plasma; oral): 343 ± 177 mL/min

Cc1cc(C)c(CNC(=O)c2cc(Cl)c3c(c2C)O[C@@](C)([C@H]2CC[C@H](N(C)C)CC2)O3)c(=O)[nH]1
steady-state apparent clearance (unbound) (human, plasma; oral, dose not given, cycle 1 day 15, mean): 621 L/h

CN(CC#N)C(=O)C[C@H](Nc1nc2ccccc2[nH]1)c1cccc(C(F)(F)F)c1
steady-state volume of distribution (human; intravenous infusion, 3 mg/kg, 1 mg/mL formulation): 54.7 ± 12.2 L

O=C(COc1ccc(Cl)cc1)NC12CC(c3nnc([C@H]4C[C@@H](OC(F)(F)F)C4)o3)(C1)C2
steady-state Ctrough (healthy human both sexes, plasma; oral, 100 mg once daily, day 14, mean): 3.73 µM

A few entries again:
CC(C)(C)OC[C@@H]1C(=O)NCCN1C(=O)C[C@H](N)Cc1cc(F)c(F)cc1F
steady-state Cmax (human, plasma; oral, dose not given, multiple doses, with: empagliflozin): 6.09 ± 1.65 ng/mL
